# Experimental data gathered from unrelated publications.
# A part holds a random share of what one study measured. Several values in a cell are separate wells, animals, samples, runs or records.

# Block 1 — cell line: mouse MPNST tumor cells; method: high-content nuclear imaging; measured: cell number; concentration: 10 µM; time: 12 h; notes: mean of 2 replicates; relative to: plate mean; direction: higher = more cells
SMILES,nuclei count
CNc1nc(-c2ccc3c(N)n[nH]c3c2)cc(N2C[C@@H](C(=O)NC3CCCCC3)CC[C@H]2C)n1,0.753 z-score
c1coc(-c2nnc3sc(C4CCCCC4)nn23)c1,0.843 z-score
CCN1C(=CC(C)=O)Sc2ccc(OC)cc21,3.01 z-score
CCN(CC)CCOC(=O)C(c1ccccc1)C1CCCCC1 (stereo not drawn),0.811 z-score
CN1C(C(=O)Nc2ccccn2)=C(O)c2ccccc2S1(=O)=O,0.106 z-score

# Block 2 — observed: enzyme activity; action: inhibitor; concentration: 0.5 µM; relative to: control
# Target: Serine/threonine-protein kinase PLK2 (PLK2, Homo sapiens, UniProt Q9NYY3)
# Chain of UniProt Q9NYY3 (whole entry, looked up): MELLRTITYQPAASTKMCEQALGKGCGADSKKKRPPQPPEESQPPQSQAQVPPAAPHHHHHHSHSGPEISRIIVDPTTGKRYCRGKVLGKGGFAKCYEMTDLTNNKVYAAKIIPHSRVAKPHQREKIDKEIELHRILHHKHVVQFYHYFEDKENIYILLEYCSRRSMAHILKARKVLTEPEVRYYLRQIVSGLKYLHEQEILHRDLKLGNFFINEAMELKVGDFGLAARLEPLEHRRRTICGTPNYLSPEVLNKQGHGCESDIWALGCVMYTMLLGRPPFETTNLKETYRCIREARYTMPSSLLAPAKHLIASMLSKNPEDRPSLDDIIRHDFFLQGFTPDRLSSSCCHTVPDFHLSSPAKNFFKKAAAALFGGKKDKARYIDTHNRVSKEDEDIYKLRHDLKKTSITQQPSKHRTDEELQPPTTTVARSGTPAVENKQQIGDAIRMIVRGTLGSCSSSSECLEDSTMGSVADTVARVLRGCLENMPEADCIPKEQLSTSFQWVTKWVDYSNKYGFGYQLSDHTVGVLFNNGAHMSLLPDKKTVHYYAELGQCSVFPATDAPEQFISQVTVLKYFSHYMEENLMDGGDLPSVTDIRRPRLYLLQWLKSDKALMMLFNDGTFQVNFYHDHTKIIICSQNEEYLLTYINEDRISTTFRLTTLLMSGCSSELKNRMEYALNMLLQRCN
SMILES,remaining activity [%]
CNC(=O)c1cc(Oc2ccc(NC(=O)Nc3ccc(Cl)c(C(F)(F)F)c3)cc2)ccn1,101
COc1ccc(OC)c2c(=S)c3ccccc3[nH]c12,97.6
COc1ccc(CNC(=O)Nc2ncc([N+](=O)[O-])s2)cc1,104
Cc1cccc(-c2[nH]c(C(C)(C)C)nc2-c2ccc3c(c2)OCO3)n1,92.1
COc1cc2nccc(Oc3ccc(NC(=S)NC(=O)c4ccccc4C)cc3)c2cc1OC,99.5
O=C(Nc1cccc(Nc2cc(Nc3cccc(C(F)(F)F)c3)ncn2)c1)C1CC1,109
Cc1nc(-c2ccccc2)c(-c2ccncc2)o1,106
N#CC(C#N)=C(N)/C(C#N)=C/c1ccc(O)cc1,99.9
Nc1ncnc2n[nH]c(Nc3ccc(F)cc3)c12,101
NCCNc1ncc(C(N)=O)c(Nc2cccc(C(F)(F)F)c2)n1,98.7
COc1cc2ncnc(Nc3ccc(F)c(Cl)c3)c2cc1OCCCN1CCOCC1,100
O=C(CCCc1ccc(-c2ccccc2F)cc1)Nc1ccc(O)cc1,102
CN(C)c1ccc(C=C2C(=O)Nc3ccccc32)cc1,111
Oc1ccc(-c2nc(-c3ccncc3)c(-c3ccc(F)cc3)[nH]2)cc1,98.7
CC(C)[C@H](CO)Nc1nc(Nc2cc(N)cc(Cl)c2)c2ncn(C(C)C)c2n1,92
Cn1c2ccccc2c2c3c(c4c5ccccc5n(CCC#N)c4c21)CNC3=O,105

# Block 3 — observed: ligand displacement; concentration: 10 µM
# Target: 5-hydroxytryptamine receptor 7 (HTR7, Homo sapiens, UniProt P34969)
# Chain of UniProt P34969 (whole entry, looked up): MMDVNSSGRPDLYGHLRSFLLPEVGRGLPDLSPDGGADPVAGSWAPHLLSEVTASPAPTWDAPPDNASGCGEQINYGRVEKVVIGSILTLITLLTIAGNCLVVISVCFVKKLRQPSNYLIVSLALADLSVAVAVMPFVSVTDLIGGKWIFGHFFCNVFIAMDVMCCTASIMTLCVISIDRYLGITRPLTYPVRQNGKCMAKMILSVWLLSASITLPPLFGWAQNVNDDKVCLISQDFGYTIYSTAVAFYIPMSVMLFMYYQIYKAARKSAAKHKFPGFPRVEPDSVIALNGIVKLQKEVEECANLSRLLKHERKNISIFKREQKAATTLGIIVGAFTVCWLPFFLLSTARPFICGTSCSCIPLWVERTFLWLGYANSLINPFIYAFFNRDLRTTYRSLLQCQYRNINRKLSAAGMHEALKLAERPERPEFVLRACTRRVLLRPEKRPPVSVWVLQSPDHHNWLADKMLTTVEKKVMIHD
SMILES,inhibition
CCc1ccccc1C(=O)Nc1n[nH]c2c(C)c(F)c(C3C(C#N)=C(C)N(C)C(C)=C3C#N)cc12,13.9%
Cn1cc(Cl)c2c(Oc3c(F)cc(Nc4cc(Cl)nc(N)n4)cc3F)ccnc21,-1.63%
O=C1NC(c2ccccn2)Sc2ccccc21 (stereo not drawn),-5.1%
CC(=O)N1CCC(c2ccc(C(=O)NC3=NCCN3)cc2C(F)(F)F)CC1,3.32%
O=C(N[C@H]1CCCCC/C=C\C2C[C@@]2(C(=O)O)NC(=O)[C@@H]2C[C@@H](Oc3ccncc3)CN2C1=O)OC1CCCC1 (stereo partly drawn),-3.24%
O=C(Nc1ccc(Oc2ccc(F)cc2)cc1)N1CCc2ncccc2[C@H]1c1ccc(F)cc1,-11.8%

# Block 4 — organism: Sarcocystis neurona; observed: parasite growth; concentration: 10 µM; notes: secondary screen
Structure (SMILES),inhibition
CN(C/C=C/C#CC(C)(C)C)Cc1cccc2ccccc12,-56.7%
CC(C)(C)C(O)/C=C/c1ccc2c(c1)OCO2 (stereo not drawn),-41.2%
CC1(C)S[C@@H]2[C@H](/N=C/N3CCCCCC3)C(=O)N2[C@H]1C(=O)O,-22.8%
O=c1[nH]c(=O)n(C2CCCO2)cc1F (stereo not drawn),-5.5%
C[C@@H]1C[C@H]2[C@@H]3C[C@H](F)C4=CC(=O)C(Cl)=C[C@]4(C)[C@@]3(F)[C@@H](O)C[C@]2(C)[C@@]1(O)C(=O)CO,-7.7%

# Mixed results
Compound,method,species,matrix,route,dose,endpoint,value
COc1ccc(-c2c(Nc3ccccn3)[nH]c3c(C4=CCCCC4)c(-c4ccccc4)nn3c2=O)cc1,LC-MS/MS,human,plasma,oral,50 mg once daily,fluctuation over tau,40.6% and 40.1% and 42.1%
